# Experimental data from different studies.
# A part holds a random share of what one study measured. Changes are numbered by the printed parent chain.

# Block 1 — method: DHFR PCA, deep sequencing; medium: yeast; added: (+)-ABA 17 µM; relative to: wild-type fitted maximum; direction: higher = stronger binding
# Target: ABI1, truncated, D143A, DHFR fusion (Arabidopsis thaliana)
# Setting: methotrexate growth selection, single substitutions
# Starting sequence: PYL1, truncated, DHFR fusion (Arabidopsis thaliana); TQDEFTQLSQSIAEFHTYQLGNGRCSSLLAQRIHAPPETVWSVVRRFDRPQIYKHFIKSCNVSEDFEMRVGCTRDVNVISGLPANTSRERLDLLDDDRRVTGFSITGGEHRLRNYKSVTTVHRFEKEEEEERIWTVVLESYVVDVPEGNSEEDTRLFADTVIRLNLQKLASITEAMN
Change,relative binding score
T86M,64.4%
T119D,-9.85%
T6Y,71.7%
A84W,63.6%
R163K,89.2%
G23Q,68%
G81H,6.75%
E152W,72.4%
P37D,39.5%

# Block 2 — target: CCNB2, cyclin fold, Cln2 fusion (human); method: yeast growth competition, sequencing; medium: yeast; setting: weak parent motif; relative to: not given; direction: higher = stronger binding
# Starting sequence: PKN2 docking peptide (human); VSAVQKLDFSDTM; partner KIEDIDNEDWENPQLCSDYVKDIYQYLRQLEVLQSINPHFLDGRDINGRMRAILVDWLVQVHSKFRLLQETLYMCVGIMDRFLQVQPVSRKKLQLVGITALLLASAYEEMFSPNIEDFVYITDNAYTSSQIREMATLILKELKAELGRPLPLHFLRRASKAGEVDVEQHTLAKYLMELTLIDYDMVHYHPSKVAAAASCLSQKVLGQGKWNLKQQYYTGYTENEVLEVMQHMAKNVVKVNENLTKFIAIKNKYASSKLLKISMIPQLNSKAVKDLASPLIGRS
Change,normalised enrichment score
A3C,1.1
T12Y,0.255
D11H,-0.277
S10Y,-0.075
V1C,0.335
A3T,-0.0352
A3F,-0.063
V1I,0.0313

# Block 3 — method: RNA Bind-n-Seq; form: RNA; medium: in vitro; concentration: 200 nM; setting: whole 134-nt RNA, ends assumed; added: 150 mM KCl; relative to: input library; direction: higher = stronger binding
# Target: Fragile X messenger ribonucleoprotein 1, C-terminal low-complexity region (Fmr1, Mus musculus, UniProt P35922)
# Constant ends, left off below: GGGAGUUCUACAGUCCGACGAUC … UGGAAUUCUCGGGUGUCAAGG
Oligonucleotide,log2 enrichment
CUGUGCUACACAUCGUAUGUACCGAAUCGGGGAAAGGGGAAAAAAAGGGGUUUUUUUGGGGAAAGUAUUAUGUUACGCCGUUCGGAUCUG,-0.204
UGCCCCUGGUGGCAUGCGGGGAGGAAGAGGUGGCCUCAUGGAUCGUGGUGGUCCCGGUGGAAUGUUCAGAGGUGGCCGUGGUGGAGACAG,0.0128
GUCCUGUGCUACACAUCGUAUGUACCGAAUCGGGAAAAAGGGAAAAAAAGGGAAAGGGAAAGUAUUAUGUUACGCCGUUCGGAUCUGCAC,-0.325
CAAGUCCUGUGCUACACAUCGUAUGUACCGAAUCGGCCCGGGGCCCGGGCCCGGGGAAAGUAUUAUGUUACGCCGUUCGGAUCUGCACUU,-0.576
GUCCUGUGCUACACAUCGUAUGUACCGAAUCGGGGUUUUUGGGGUUUUUGGUUUUUGGGAAAGUAUUAUGUUACGCCGUUCGGAUCUGCA,-0.139
AGUCCUGUGCUACACAUCGUAUGUACCGAAUCGGGAAAAAAAGGGUUUGGGUUUGGGAAAGUAUUAUGUUACGCCGUUCGGAUCUGCACU,0.197

# Mixed results
Molecule,target,assay,test system,setting,how to read,measurement,result
"PhoQ, residues 284 288 289 292 302 303 SLANIV","PhoP, residues 12 14 15 18 19 NYFTV (Escherichia coli, UniProt P23836)","Sort-seq, item: YFP reporter",E. coli,"PhoQ-PhoP variant library, added: 10 µM Mg2+","relative to: high Mg2+ state, higher = stronger signaling",fold induction,11

# Some of these lines once more (block 3):
Oligonucleotide,log2 enrichment
CUGUGCUACACAUCGUAUGUACCGAAUCGGGGAAAGGGGAAAAAAAGGGGUUUUUUUGGGGAAAGUAUUAUGUUACGCCGUUCGGAUCUG,-0.204
GUCCUGUGCUACACAUCGUAUGUACCGAAUCGGGAAAAAGGGAAAAAAAGGGAAAGGGAAAGUAUUAUGUUACGCCGUUCGGAUCUGCAC,-0.325
AGUCCUGUGCUACACAUCGUAUGUACCGAAUCGGGAAAAAAAGGGUUUGGGUUUGGGAAAGUAUUAUGUUACGCCGUUCGGAUCUGCACU,0.197
